Results pooled from the literature.
Each line is one published result; not all experiments were run side by side.
Target: Vascular endothelial growth factor receptor 2 (KDR, Homo sapiens, UniProt P35968)
UniProt P35968, sequence (whole entry, looked up): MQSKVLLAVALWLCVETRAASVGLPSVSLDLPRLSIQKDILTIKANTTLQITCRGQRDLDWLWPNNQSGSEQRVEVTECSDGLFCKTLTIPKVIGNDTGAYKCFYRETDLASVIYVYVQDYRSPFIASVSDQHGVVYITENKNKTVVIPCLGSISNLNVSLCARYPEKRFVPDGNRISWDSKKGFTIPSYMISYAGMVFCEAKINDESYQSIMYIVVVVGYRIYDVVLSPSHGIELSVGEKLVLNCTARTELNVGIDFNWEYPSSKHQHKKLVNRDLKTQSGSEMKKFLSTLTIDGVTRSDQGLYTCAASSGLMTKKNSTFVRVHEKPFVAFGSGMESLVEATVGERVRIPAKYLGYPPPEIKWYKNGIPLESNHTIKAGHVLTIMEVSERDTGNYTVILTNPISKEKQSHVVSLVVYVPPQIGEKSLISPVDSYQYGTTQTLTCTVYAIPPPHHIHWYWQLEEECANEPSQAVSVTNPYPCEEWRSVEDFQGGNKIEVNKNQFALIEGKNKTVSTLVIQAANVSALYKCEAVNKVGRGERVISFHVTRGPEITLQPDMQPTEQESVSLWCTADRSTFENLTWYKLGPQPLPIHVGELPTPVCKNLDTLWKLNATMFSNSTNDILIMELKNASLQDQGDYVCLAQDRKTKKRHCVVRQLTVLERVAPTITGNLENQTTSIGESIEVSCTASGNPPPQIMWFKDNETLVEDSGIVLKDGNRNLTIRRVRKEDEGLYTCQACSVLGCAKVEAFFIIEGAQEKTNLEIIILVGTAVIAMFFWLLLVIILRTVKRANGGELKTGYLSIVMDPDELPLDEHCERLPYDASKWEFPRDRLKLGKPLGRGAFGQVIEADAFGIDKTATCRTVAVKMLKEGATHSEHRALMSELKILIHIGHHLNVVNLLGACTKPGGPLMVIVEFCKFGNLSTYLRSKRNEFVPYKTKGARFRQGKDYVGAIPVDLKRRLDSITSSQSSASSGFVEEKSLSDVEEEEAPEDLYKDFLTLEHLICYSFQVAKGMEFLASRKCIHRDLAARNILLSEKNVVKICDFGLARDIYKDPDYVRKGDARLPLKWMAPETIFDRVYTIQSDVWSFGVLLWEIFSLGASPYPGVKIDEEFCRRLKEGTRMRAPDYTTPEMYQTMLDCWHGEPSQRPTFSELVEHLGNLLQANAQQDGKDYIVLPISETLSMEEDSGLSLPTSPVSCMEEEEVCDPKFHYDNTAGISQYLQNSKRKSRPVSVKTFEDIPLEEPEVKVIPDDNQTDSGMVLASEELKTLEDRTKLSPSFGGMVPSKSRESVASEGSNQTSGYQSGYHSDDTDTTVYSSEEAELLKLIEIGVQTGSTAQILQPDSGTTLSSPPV

The inhibition of C#Cc1cc(-c2cc(Nc3nc(N[C@@H](C)c4ccc(F)cn4)ncc3Cl)n[nH]2)ccc1C=O is reported as 29.4% (enzyme activity, inhibitor; 0.2 µM).
The remaining activity of O=C(NC1CCC1)c1ccc2nc(-c3cccc(NS(=O)(=O)NCCN4CCCCC4)c3)cn2c1 is reported as 71% (enzyme activity; 10 µM).
COc1cc(-c2cncc3c2CN(C)Cc2cc(N4CCNCC4)ccc2-3)cc(OC)c1OC gave a remaining activity of 110% (kinase activity; 1 µM, human enzyme, with: ATP 10 µM; baseline: DMSO control).
O=S1(=O)N=C(NCc2ccc(OC(F)(F)F)cc2)Nc2cc(Cl)ccc21: inhibition “no inhibition” (enzyme activity; 10 µM).
For [2H]c1cc(C)c(NC(=O)c2cnc(Nc3cc(N4CCCCC4)nc(C)n3)s2)c(Cl)c1, the inhibition was under 30% (0.01 µM).
The remaining activity of Cc1cc(Nc2cc(N3CCN(C)CC3)nc(Sc3ccc(NC(=O)C4CC4)cc3)n2)[nH]n1 is reported as 84% (kinase activity, KinaseProfiler; 0.03 µM, species human; baseline: control).
With COc1cc(F)ccc1-c1ncnc(Nc2cccc(C[S@](C)(=N)=O)c2)n1 the remaining activity was 53% (kinase activity; 10 µM, with: 10 µM ATP).
The remaining activity of CNc1ncc2c(/C=C/C(=O)N3CCC(OC)CC3)nn(Cc3cccc(C(F)(F)F)c3)c2n1 is reported as 93% (kinase activity, inhibitor; 1 µM; baseline: untreated control).
O=C(O)[C@H]1O[C@@H](Oc2cc(O)c3c(=O)cc(-c4ccc(O)c(O)c4)oc3c2)[C@H](O)[C@@H](O)[C@@H]1O gave an inhibition of over 80% (inhibitor, LANCE Ultra; 40 µM).
The remaining activity of c1cnc2ccc(Nc3nc(NC4CC4)c4nc[nH]c4n3)cc2c1 is reported as 82% (kinase activity, inhibitor, SelectScreen kinase profiling; 1 µM; baseline: control).

Repeated from above:
The inhibition of C#Cc1cc(-c2cc(Nc3nc(N[C@@H](C)c4ccc(F)cn4)ncc3Cl)n[nH]2)ccc1C=O is reported as 29.4% (enzyme activity, inhibitor; 0.2 µM).
